Experimental data pooled from the literature.
± gives the spread as reported.
Organism: Plasmodium falciparum

SMILES	test	system	conditions	IC50
C/C(=C/C(=O)C[C@]1(C)CCc2cc(O)cc(C)c2O1)CC/C=C(\C)CO	parasite growth, SYBR Green	DD2	72 h, drug-resistant strain, blood stage	> 112000 nM
CCOC(=O)C1=C(C)NC2=C(C(=O)CC(c3ccc(OC)c(OC)c3)C2)C1c1ccccc1Cl (stereo not drawn)	male gamete formation	stage V gametocytes	24 h, compound carried over	67.7 nM
CC1(c2ccc(Cl)cc2)NC(C(=O)O)Cc2c1[nH]c1ccccc21 (stereo not drawn)	parasite growth	Dd2	–	> 10000 nM
CCN(CC)CCCC(C)Nc1ccnc2cc(Cl)ccc12 (stereo not drawn)	parasite growth, SYBR Green	NF54	96 h, blood stage	13 nM
O=C1Nc2cc(F)cc(F)c2C(=O)CCc2ccccc21	parasite growth	NF54 chloroquine-sensitive	–	130 nM
Clc1ccc2c(Nc3ccc(N4CCOCC4)cc3)ccnc2c1	parasite growth, SYBR Green	DD2	72 h, drug-resistant strain, blood stage	≥ 250 nM
COC1=CC(c2ccc[nH]2)=N/C1=C\c1[nH]c(Cc2ccc(F)cc2)cc1Cc1ccc(F)cc1	parasite growth	D6	72 h	< 8.3 nM
Clc1ccc2c(Nc3ccc(C4CN(Cc5ccccc5)CCO4)cc3)ccnc2c1 (stereo not drawn)	parasite growth, SYBR Green	D6	72 h, blood stage	101 nM
O=NN(CCCl)C(=O)Nc1ccc2[nH]c3ccccc3c2c1	parasite growth, [3H]hypoxanthine incorporation	NF54 (chloroquine-sensitive)	–	5070 nM
C[C@H]1[C@@H](OC/C=C\CO[C@H]2O[C@@H]3O[C@@]4(C)CC[C@H]5[C@H](C)CC[C@@H]([C@H]2C)[C@@]35OO4)O[C@@H]2O[C@@]3(C)CC[C@H]4[C@H](C)CC[C@@H]1[C@@]24OO3	parasite growth	D6	72 h, blood stage	< 10 nM
CCN(CC)CCCC(C)Nc1ccnc2cc(Cl)ccc12 (stereo not drawn)	parasite growth, SYBR Green	3D7	72 h, blood stage	12.6 nM
CCN1CCOCC1c1ccc(Nc2ccnc3cc(Cl)ccc23)cc1 (stereo not drawn)	parasite growth, SYBR Green	D6	72 h, blood stage	69 nM
CCN(CC)CCCC(C)Nc1ccnc2cc(Cl)ccc12 (stereo not drawn)	parasite growth	D6	–	< 0.026 µg/mL
Brc1ccc(Nc2nc(NCc3ccccc3)c3ccccc3n2)cc1	parasite growth	3D7	72 h, asynchronous culture	682 ± 213 nM
CC(C)(C)c1ccc(O)c(CNC2CCCCC2)c1	female gamete formation, refers to: Pfs25	stage V gametocytes	24 h, compound carried over	> 20000 nM
CCCN1CCC(c2ccc(Nc3ccnc4cc(Cl)ccc34)cc2)CC1	parasite growth, SYBR Green	D6	72 h, blood stage	8 nM
CCN(CC)CCCC(C)Nc1ccnc2cc(Cl)ccc12 (stereo not drawn)	parasite growth	NF54	blood stage	9 nM
C[C@H]1[C@@H](Oc2cccc(N[C@@H]3[C@H](C)O[C@@H]4O[C@@]5(C)CC[C@H]6[C@H](C)CC[C@@H]3[C@@]46OO5)c2)O[C@@H]2O[C@@]3(C)CC[C@H]4[C@H](C)CC[C@@H]1[C@@]24OO3	parasite growth	D6	72 h, blood stage	< 10 nM
C=C(C)[C@@H]1CC[C@]2(CO)CC[C@]3(C)[C@H](CC[C@@H]4[C@@]5(C)CC[C@H](O)[C@@](C)(CO)[C@@H]5CC[C@]43C)[C@@H]12	parasite growth	Dd2 drug-resistant	72 h	1330 ± 370 nM
COc1ccc(C(=O)/C=C/c2ccc(O)c(CN3CCN(c4ccnc5cc(Cl)ccc45)CC3)c2)c(OC)c1	parasite growth	DD2	drug-resistant strain, blood stage	300 to 600 nM
CN1CCN(c2ccc(Nc3ccnc4cc(Cl)ccc34)cc2)CC1	parasite growth, SYBR Green	D6	72 h, blood stage	14 nM
CC(C)(C)NC(=O)[C@@H]1CN(Cc2cnc3occc3c2)CCN1C[C@@H](O)C[C@@H](Cc1ccccc1)C(=O)N[C@H]1c2ccccc2C[C@H]1O	ring stage growth	INDO	12 h, early to late ring	> 8000 nM
CCCOC(=O)C1=C(C)NC2=C(C(=O)CC(c3ccc(OC)c(OC)c3)C2)C1c1ccccc1F (stereo not drawn)	male gamete formation	stage V gametocytes	24 h, compound washed out	139 nM

SMILES	test	system	conditions	IC50
O=C1C(O)=C([C@H]2CC[C@H](c3ccc(Cl)cc3)CC2)C(=O)c2ccccc21	parasite growth, [3H]hypoxanthine incorporation	3D7	–	0.7 nM
CCN(CC)CCCC(C)Nc1ccnc2cc(Cl)ccc12 (stereo not drawn)	parasite growth	3D7	–	> 12000 nM
Cc1cc(C)cc(C(=O)NOCCCCCC(=O)NO)c1	parasite growth	HN12, NF54	72 h, gametocyte	≤ 1000 nM
CCN(CC)CCCC(C)Nc1ccnc2cc(Cl)ccc12 (stereo not drawn)	parasite growth	–	72 h	108 nM
COc1ccc(C(=O)/C=C/c2cc(CN3CCN(c4ccnc5cc(Cl)ccc45)CC3)c(O)c(OC)c2)c(OC)c1	parasite growth	D10	blood stage	300 to 600 nM
CC1(c2ccccc2)NC(C(=O)O)Cc2c1[nH]c1ccccc21 (stereo not drawn)	parasite growth	Dd2	–	> 5000 nM
COc1cc(/C=C/C(C)=O)ccc1OCc1cn(-c2ccnc3cc(Cl)ccc23)nn1	parasite growth	DD2	drug-resistant strain, blood stage	700 nM
Cc1cccc(C)c1OCC(=O)N[C@@H](Cc1ccccc1)[C@@H](O)C[C@H](Cc1ccccc1)NC(=O)[C@H](C(C)C)N1CCCNC1=O	parasite growth, flow cytometry	3D7, human O+ erythrocytes	48 h	1300 nM
Cc1cccc(C(=O)NOCCCCCC(=O)NO)c1	parasite growth	HN12, NF54	72 h, gametocyte	≤ 1000 nM
Clc1ccc2c(Nc3ccc(C4CCNCC4)cc3)ccnc2c1	parasite growth, SYBR Green	DD2	72 h, drug-resistant strain, blood stage	71 nM
CNC(=O)C1Cc2c([nH]c3ccccc23)C(c2ccc(Br)cc2Cl)N1 (stereo not drawn)	parasite growth	Dd2	–	300 ± 40 nM
CC(C)CN1CCC(c2ccc(Nc3ccnc4cc(Cl)ccc34)cc2)CC1	parasite growth, SYBR Green	DD2	72 h, drug-resistant strain, blood stage	10 nM
COc1ccc(C(=O)/C=C/c2ccc(OCc3cn(-c4ccnc5cc(Cl)ccc45)nn3)c(OC)c2)c(OC)c1	parasite growth	D10	blood stage	40 nM
COc1cc(C2NC(C(=O)O)Cc3c2[nH]c2ccccc32)c(Br)cc1F (stereo not drawn)	parasite growth	Dd2	–	> 10000 nM
CCOC(=O)/C(C#N)=C/NCCc1c[nH]c2ccccc12	parasite growth, [3H]hypoxanthine incorporation	NF54 (chloroquine-sensitive)	–	> 35300 nM
CCN1CCN(c2ccc(Nc3ccnc4cc(Br)ccc34)cc2)CC1	parasite growth, SYBR Green	DD2	72 h, drug-resistant strain, blood stage	14 nM
COc1cc2nc(C)c(-c3ccc(Oc4ccc(OC(F)(F)F)cc4)cc3)c(OCOC(=O)OC(C)C)c2cc1Cl	parasite growth, SYBR Green I	D6, drug-sensitive	72 h	62 nM
C[C@H]1[C@@H](OC[C@@H](O)[C@@H](O)CO[C@H]2O[C@@H]3O[C@@]4(C)CC[C@H]5[C@H](C)CC[C@@H]([C@H]2C)[C@@]35OO4)O[C@@H]2O[C@@]3(C)CC[C@H]4[C@H](C)CC[C@@H]1[C@@]24OO3	parasite growth	D6	72 h, blood stage	< 10 nM
COC(=O)C(CC(=O)c1ccc2ccccc2c1)OC (stereo not drawn)	parasite growth, parasite lactate dehydrogenase	NF54 (chloroquine-sensitive)	–	42000 nM
CCCCN(CCCC)CC(O)c1cc(Cl)cc2c1-c1ccc(Cl)cc1/C2=C/c1ccc(Cl)cc1 (stereo not drawn)	parasite growth	–	drug-resistant strain, blood stage	3 nM
CCOC(=O)C(=CNc1ccc2c(c1)OCO2)C(=O)OCC	parasite growth, [3H]hypoxanthine incorporation	NF54 (chloroquine-sensitive)	–	23400 nM
COc1ccc(C2CC(=O)C3=C(C2)NC(C)=C(C(=O)OC(C)C)C3c2ccccc2C)cc1OC (stereo not drawn)	male gamete formation	stage V gametocytes	24 h, compound carried over	86 nM
